Experimental data gathered from unrelated publications.
Every numbered part comes from another study and shows a few of its results, in no order.

Series 1 — technique: protein binding microarray; form: double-stranded DNA, one strand shown; sample: in vitro; concentration: not given; baseline: not given; reading: higher = stronger binding; endpoint: E-score
Target: Histone acetyltransferase KAT6A, winged helix 1, GST fusion (KAT6A, Homo sapiens, UniProt Q92794, residues 1-85)
Notes: 8-mer, flanks averaged, mean of 2 arrays, mostly near background
Construct (chain): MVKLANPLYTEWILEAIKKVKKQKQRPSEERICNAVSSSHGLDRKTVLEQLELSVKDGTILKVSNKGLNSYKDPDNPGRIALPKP
ATACTACA: -0.123
CTCCAGTA: -0.0406
CTCCGTAA: 0.144
AAGCACTA: -0.259
CTAGAGGA: -0.177
GACCGACA: 0.176
AATGAAGA: -0.0892
ATTAGAGG: -0.197
TGACTGCA: -0.144
CGTTACGA: 0.103
AGTCGCAA: 0.0212
GCAAGCTA: -0.0727
GCACGGGA: 0.293
GCGCTCGA: 0.276
AACTATAC: 0.0374
AGGCGATG: -0.0276
ATCGCCTA: -0.046
CGTTGCAG: 0.0155
AATACCAA: 0.0118
GCAATAGA: 0.00255

Series 2 — technique: protein-binding microarray; form: double-stranded DNA, one strand shown; sample: in vitro; concentration: 2200 nM top; notes: 60-bp whole probe; added: salmon DNA 0.4 mg/ml; baseline: random background probes; reading: higher = stronger binding; endpoint: fitted relative affinity; all sequences stand within: GCCTAGCAC … GTCTTGATTCGCTTGACGCTGCTG
Target: Interferon regulatory factor 7, full length, phosphomimetic (IRF7, Homo sapiens, UniProt Q92985, residues 1-503, S471D/S472D/S475D/S476D/S477D/S483D/S484D/S487D)
Sequence of UniProt Q92985 (whole entry, unmodified, looked up): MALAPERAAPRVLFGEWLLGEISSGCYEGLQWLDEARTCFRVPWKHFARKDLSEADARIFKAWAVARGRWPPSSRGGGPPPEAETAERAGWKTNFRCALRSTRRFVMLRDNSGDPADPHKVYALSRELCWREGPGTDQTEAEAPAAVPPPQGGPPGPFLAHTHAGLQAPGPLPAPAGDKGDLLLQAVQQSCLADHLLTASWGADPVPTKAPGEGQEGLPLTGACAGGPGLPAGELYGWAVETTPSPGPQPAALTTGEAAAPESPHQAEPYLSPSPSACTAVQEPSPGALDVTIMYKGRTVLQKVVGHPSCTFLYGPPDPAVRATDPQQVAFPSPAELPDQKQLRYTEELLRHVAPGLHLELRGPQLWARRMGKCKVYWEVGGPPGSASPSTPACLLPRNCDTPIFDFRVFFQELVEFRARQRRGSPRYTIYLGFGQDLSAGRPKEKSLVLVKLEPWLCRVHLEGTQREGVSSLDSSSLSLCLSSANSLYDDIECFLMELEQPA
GACGGACTCCTACTGCTGACGTGCTAG: 0.439 z-score
TTGGGTTCCCTTTTCCTTTAGTGCTAG: 2.81 z-score
GACGGTTCCCGTTTCCTGACGTGCTAG: 2.76 z-score
TTACGTATCGGTTTCGGTTAGTGCTAG: 7.8 z-score
GACGATTTCAGTATCAAGACGTGCTAG: 0.869 z-score
TTAGGTCTCGGTCTCGGTTAGTGCTAG: 0.809 z-score
AACGGTTTCGGGTATCGGGACGTGCTA: 6.47 z-score
TCTCATTTCCAATTACCTTTGTGCTAG: 2.98 z-score
GTCATACGAGCGGTAGCCAAGTGCTAG: -0.141 z-score
TTAGGTATCCTACTGCGTTAGTGCTAG: 0.464 z-score
TTAGGACTGGGCATCGGTTAGTGCTAG: -0.917 z-score
TCAGATGCCTTTCTCTTACTGTGCTAG: 1.18 z-score
AACGATATCAGACTGGAGACGTGCTAG: -0.0109 z-score
GACGGACTGGACTATCTGGACGTGCTA: -0.532 z-score
GACGAACTGAGAATCGAGACGTGCTAG: -0.245 z-score
TTAGGCCTGGACTTTCGGTTAGTGCTA: 4.61 z-score

Series 3 — technique: RNA Bind-n-Seq; form: RNA; sample: in vitro; concentration: 365 nM; baseline: no-protein control; reading: higher = stronger binding; endpoint: RBNS enrichment (R)
Target: RNA binding protein fox-1 homolog 2, RRM domain, GST-SBP tag (RBFOX2, Homo sapiens, UniProt O43251-10, residues 100-194)
Notes: natural RNA segment, single round, ends assumed
All sequences stand within: GGGAGUUCUACAGUCCGACGAUC … UGGAAUUCUCGGGUGCCAA
Target sequence (chain): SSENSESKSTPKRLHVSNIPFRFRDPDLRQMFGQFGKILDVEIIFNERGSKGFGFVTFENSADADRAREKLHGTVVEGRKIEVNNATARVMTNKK
UUUUUAAAUGCUACUUUGUAAAGGUGACCUUUAAAAAAUAAAAGGAAAAUAAAGAAUGUUAGUUUCAUUCUGCCGCUUUAUUUUUUUAACUUUUUCAGAAUAUAGUUUUA: 0.724
CCAAUUUGAAUUCAGGAUUACAGUGCUCCUUUCAUUCUUUCAAACAGAUAACAUAAAAGUUCUGUUACCCUCAUUCUAUACAACCUAUGGAUUUCAUGUGUUACAAUAUC: 0.331
CUGGGCUGCAUCUCAGCCCCACCUGCAUGGUAUCCAGCUCCCAUCCACUUCUCACCCUUCUUUCCUCCUGACCUUGGUCAGCAGUGAUGACCUCCAACUCUCACCCACCC: 2.91
CCCCGAGAAUUCCUCUUCUGGAUCCCAGUUUGCAGCAAACCCCACACCCCAGCUCACACAGCAAAAACAAUGGACAGGCCCAGAGGCUGAAGCAAACAGUGUCCCUUCUG: 0.454
UUUUUUUUUCUUUUGUUAGAGGAGAGCUUGAUGUGAUUAUCUUCAAACCCACCAAACCAACAGGAUAAUUGACAAAUAAACGCCAUAGGCUAGGCUGAACUGUAUGUUAC: 0.508
UUAUACGAAUGUUUUCUACCAGUGUGCUUGGGUUUGCCAUGAUGCGAGGCUGAGUUGCUGUAGCGUCUUGAUUCUCUCCCUGGGUCUGCGUUCCCUCCCCUGGGCCUGAC: 0.583
AUACAGAUGUUUGGUUUGGCCAGCUGACAAGGAAGCAGUCCAUAGAAGAGAUGGGCUCAGCCUGAACUAGUUGUCUGUGAAAAGACUCCUAACGUUGCGUUAACAUAUUU: 0.626
UGAUGAUAUUUUCCAUUAAUAAAAUGUAAUUUCAGAUUAUUCGUUUACAAGCUUUAUAAUUUUAUGAUUUUUUAAUCGUGUUUUGUCACAGACUUCCCUAGUGUUUGUAC: 0.814
GGUGAUAGACCCUGGUACUCCUAAGACCUGGGGUAUCAUAUCAGGGACCUGCUUGUGAACAUGUGUAUAGAGUGCCAGCUCAGAUAAUAAGCUUACCAGUGACCUUGUUC: 0.836
UGAGCUUCAGGGCUGCGUGGAAAGAGUUUUUACUCUCUUUUUCUAGCCUGUAUACCAGGCUUUUCCCCACAUUGUCAGGUAGAGCACCAGCUUCCCUGACCGCUGCUGCU: 0.265
UAUUCUUCUGAGUGUCUAUGUUAACUUCCCUCUAUCCCGCUUAUAAAAAAAUUCUCCAACAAAAAUACUUGUUGACUUGAUGUUUUAUCACUUCUCUAAGUAAGGUUGAA: 0.252
AGGCGAGUGCUCUGCCACUGAGUCACGGCCCAGCCCUCUCUCCCUCAUUCUUCUGUUUCCAUACCAAAGGCCAGGAGUGCUUCACUGUGCUGGAGCCAUGGUGUCCUUUG: 0.422

Series 4 — technique: RNA Bind-n-Seq; form: RNA; sample: in vitro; concentration: not given; baseline: input RNA pool; reading: higher = stronger binding; endpoint: bound/input enrichment
Target: RING finger protein unkempt homolog, zinc fingers 1-6, GST-SBP tag (UNK, Homo sapiens, UniProt Q9C0B0, residues 30-357)
Sequence of UniProt Q9C0B0 (30-357, looked up): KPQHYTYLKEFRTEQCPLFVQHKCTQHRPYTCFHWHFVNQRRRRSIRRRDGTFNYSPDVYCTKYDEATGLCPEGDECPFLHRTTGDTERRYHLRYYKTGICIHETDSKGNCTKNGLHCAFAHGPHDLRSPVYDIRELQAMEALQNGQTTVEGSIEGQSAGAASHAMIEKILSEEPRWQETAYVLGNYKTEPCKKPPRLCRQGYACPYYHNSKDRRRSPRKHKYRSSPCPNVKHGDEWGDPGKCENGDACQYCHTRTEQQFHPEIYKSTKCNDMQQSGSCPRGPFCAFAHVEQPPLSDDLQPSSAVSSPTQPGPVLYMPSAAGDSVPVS
Notes: RNA with constant flanks, human and mouse sites, ends assumed
All sequences stand within: GGGAGUUCUACAGUCCGACGAUC … CAACAGAGGAUUGAGCAUCA
AUUUUGUAAAUACUGUAUACCAUGUAUUAUGUGUAUAUUGUUCAUACUUGAGAGGUAUAUUAUAGUUUUGUUAUGAAAGUAUGUAUUUUGCCCUGCCCACAUUGCAGGUGUUUUGUAUAU: 4.62 ratio
AAUGUAUCUGAACUUAGUUUAUGGGUUAUUCAAGGAUGUUUUUGGUUAUUUGGAACUGUCAUACUUAAAUACUUGACAUCUAAAAUUUUUGGUAUUGCAGAUGACGCUCAUAUUGGCAAC: 0.188 ratio
AGAGCAGAGGCCAUGAAUAUUAAAAUAGAACCCGAGGAGACAACGGAAGCCAGAACUCAUAAUCUGAGACGUCGAAUGGGUUGUCCAACUCCAAAAUGUGAAAAUGAGAAAGAAAUGAAG: 0.871 ratio
GUUCCAGACCCUGAGCUGAUUGAUCUGAUCUACUGUGGUCGGAAGCUAAAAGAUGACCAGACACUUGACUUCUAUGGCAUUCAACCUGGGUCCACUGUCCAUGUUCUGCGAAAGUCCUGG: 0.112 ratio
AUCAAAUACUUUGGGGACAUCAUUAGUGUGGGACAGAGACUGUUGCAAGGAGCUCGGAUCUUAGGGAUUCCAGUUAUCAUAACGGAACAAUACCCCAAAGGACUUGGCAGCACCGUUCAA: 0.212 ratio
CCCAUGCUUUUAUGGACACUAGGUAAAACGCCUUCAGCUUAAAAUUUUUGUUAAAUAAUUUAGUUUAUUUUAUUGUUAUCUUCCAGGUGUCUAAAUCUCCAGUCUGUCUGUUGUACUGGU: 23.6 ratio
AACCAAGGAACAGUGAUCCAUUUUAACAACCCUAAAGUUCAGGCAUCCCUGGCAGCAAACACCUUCACCAUUACAGGCCACGCUGAGACAAAGCAGCUGACAGAAAUGCUUCCCAGCAUC: 0.438 ratio
CAGGACCCCCCUCUCGCUCCCCCUCAUCGGCGGCGUCGUAGCCGCCAACAUCCCGGGCCGCUGCCUCCAACGAAUGCCGCCCCAACCGUCCCGGGCCCUGUUGAACCUCUGCUCCUGCCG: 0.291 ratio
CUGCCAAGCUGCUGGUCCUCAAAGGAAGAUUCUAGCCUACCCCCCAGCCUUGUUCCCACAUUCCAUCACCCACCUGAGCUCACAUGCUGACCUGCCCCCCUCCUCAGCACUCACCGUGUG: 0.489 ratio
GAGACGACAAAAAGCUGUUUUUCCUUUUGUGACUCCAGAGCUGGAAAGCCUUCCCAGCUCCAUAGUGUCUGUACCUGUCUUGUGCUUUGGGGUGUCCUUCAUGUGGCCAUUCUGCCUGCA: 0.122 ratio
GCCAUUGAUAGGAAGCGGCACCAUGUACUACAGACGGCUCAUCCCUCCCCUUUGUCAGUGUAUAGAGGGUUCUUUGGAUGUAGACACUUUUCAAAGACCAAUGAGCUGCUGCAGAAGUCU: 0.195 ratio

Series 5 — technique: RNAcompete; form: RNA; sample: in vitro; concentration: 20 nM; notes: 7-mer, probes averaged, single round; baseline: mean of 7-mers; reading: higher = stronger binding; endpoint: 7-mer Z-score
Target: PABPC1L2, full length, GST fusion (mouse, UniProt A0ABA7IW68)
Construct (chain): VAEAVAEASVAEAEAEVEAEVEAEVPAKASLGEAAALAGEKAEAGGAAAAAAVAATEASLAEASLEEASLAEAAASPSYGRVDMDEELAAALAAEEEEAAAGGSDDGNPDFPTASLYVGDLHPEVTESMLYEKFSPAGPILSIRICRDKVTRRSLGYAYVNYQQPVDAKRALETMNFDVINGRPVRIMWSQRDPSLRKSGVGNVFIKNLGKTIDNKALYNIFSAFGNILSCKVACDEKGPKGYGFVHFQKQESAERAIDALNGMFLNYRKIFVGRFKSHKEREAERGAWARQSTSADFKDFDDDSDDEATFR
UGGUCUA: -0.335
CUAUGAA: -0.0482
GAGUUAG: -0.195
CUGAACA: 0.0515
UAGUACA: -0.101
UCUUCGC: -0.336
CUAAUUA: -0.273
CAUCUGG: -0.115
UACAAAG: 1.03
UGCAGGC: -0.0428
GGUUCGA: -0.0808
ACAGAAU: 0.0732
UUGGCAC: -0.115
AAACCCG: 0.329
CUUUGAA: -0.0881
UGACGCU: -0.211
CCAGGGG: 0.169
UCAAUUG: -0.28
GCAGUGA: -0.0609
GGUUUCA: -0.311
AAUAUCC: 0.104
AAUCGCU: -0.0301
UUAAGGA: 0.124
AGGACCG: 0.133
GAAAGAG: 1.34

A few entries again (series 2):
GACGATTTCAGTATCAAGACGTGCTAG: 0.869 z-score
TTAGGTCTCGGTCTCGGTTAGTGCTAG: 0.809 z-score
AACGGTTTCGGGTATCGGGACGTGCTA: 6.47 z-score
TCTCATTTCCAATTACCTTTGTGCTAG: 2.98 z-score
GTCATACGAGCGGTAGCCAAGTGCTAG: -0.141 z-score
TTAGGTATCCTACTGCGTTAGTGCTAG: 0.464 z-score
TTAGGACTGGGCATCGGTTAGTGCTAG: -0.917 z-score
TCAGATGCCTTTCTCTTACTGTGCTAG: 1.18 z-score
AACGATATCAGACTGGAGACGTGCTAG: -0.0109 z-score
GACGGACTGGACTATCTGGACGTGCTA: -0.532 z-score
GACGAACTGAGAATCGAGACGTGCTAG: -0.245 z-score
